{"data": "Measured values gathered from unrelated publications", "note": "Numbered parts are unrelated; each lists some results of a single study. Changes are numbered by the printed parent chain."}
{"data": "Set 1", "target": "CCNE2, cyclin fold, Cln2 fusion (human)", "technique": "yeast growth competition, sequencing", "medium": "yeast", "setting": "strong parent motif", "relative to": "not given", "direction": "higher = stronger binding", "starting sequence": "CDC25A docking peptide (human); PPHRRRLLFACSP"}
{"Substitution": "R4C", "normalised enrichment score": 3.54}
{"Substitution": "R6G", "normalised enrichment score": 0.577}
{"Substitution": "H3L", "normalised enrichment score": 1.1}
{"Substitution": "L7Q", "normalised enrichment score": 0.587}
{"Substitution": "F9H", "normalised enrichment score": 0.865}
{"Substitution": "C11W", "normalised enrichment score": 0.882}
{"Substitution": "C11G", "normalised enrichment score": 2.01}
{"Substitution": "A10D", "normalised enrichment score": 3.89}
{"Substitution": "R4P", "normalised enrichment score": 0.693}
{"Substitution": "F9V", "normalised enrichment score": 0.823}
{"Substitution": "R5K F9L", "normalised enrichment score": 0.614}
{"Substitution": "H3R", "normalised enrichment score": 1.07}
{"Substitution": "R4N", "normalised enrichment score": 1.28}
{"Substitution": "R6W", "normalised enrichment score": 1.64}
{"Substitution": "P13Q", "normalised enrichment score": 1.92}
{"Substitution": "L7W", "normalised enrichment score": 1.16}
{"Substitution": "P2A", "normalised enrichment score": 1.07}
{"Substitution": "P1T", "normalised enrichment score": 1.46}
{"Substitution": "P2C", "normalised enrichment score": 2.11}
{"Substitution": "S12Y", "normalised enrichment score": 1.93}
{"Substitution": "P13Y", "normalised enrichment score": 2.37}
{"Substitution": "P2T", "normalised enrichment score": 2.1}
{"Substitution": "L8F", "normalised enrichment score": 2.67}
{"Substitution": "L8S", "normalised enrichment score": 2.81}
{"Substitution": "R6K", "normalised enrichment score": 1.87}
{"data": "Set 2", "target": "Histone acetyltransferase KAT6A, winged helix 2, GST fusion (KAT6A, Homo sapiens, UniProt Q92794, residues 85-181)", "technique": "protein binding microarray", "form": "double-stranded DNA, one strand shown", "medium": "in vitro", "tested at": "not given", "setting": "8-mer, flanks averaged, mean of 2 arrays, mostly near background", "relative to": "not given", "direction": "higher = stronger binding", "Target sequence (chain)": "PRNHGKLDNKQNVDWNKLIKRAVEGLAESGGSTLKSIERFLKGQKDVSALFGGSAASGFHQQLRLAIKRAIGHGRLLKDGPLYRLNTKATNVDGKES"}
{"Strand": "AGGGAGTC", "E-score": -0.0155}
{"Strand": "ATACCGAG", "E-score": -0.0942}
{"Strand": "GGTGACGA", "E-score": 0.0168}
{"Strand": "TAATGAAA", "E-score": 0.22}
{"Strand": "AATAACTC", "E-score": -0.0602}
{"Strand": "TCGCCCGA", "E-score": 0.0836}
{"Strand": "ATGTTAGC", "E-score": 0.034}
{"Strand": "CGAGACGA", "E-score": -0.156}
{"Strand": "AAGCTCGT", "E-score": -0.0476}
{"Strand": "AGGATAGA", "E-score": -0.00511}
{"Strand": "AGACAAAT", "E-score": -0.00468}
{"Strand": "GATCGTAA", "E-score": -0.113}
{"Strand": "GTTGAGCA", "E-score": -0.00937}
{"Strand": "ATATCTCC", "E-score": -0.0528}
{"Strand": "CATGGTCA", "E-score": -0.0112}
{"Strand": "AGTAGGAA", "E-score": -0.105}
{"Strand": "TAGAAGCA", "E-score": -0.0272}
{"Strand": "TATAAACA", "E-score": 0.0829}
{"Strand": "CGCTAGAG", "E-score": 0.00367}
{"Strand": "CAGGGATC", "E-score": 0.0316}
{"Strand": "CAGAGTAG", "E-score": 0.0195}
{"Strand": "AAACTCTA", "E-score": -0.081}
{"Strand": "AGCGGCCG", "E-score": 0.174}
{"Strand": "CCAAGTGA", "E-score": -0.188}
{"Strand": "CGCGGTGC", "E-score": 0.0743}
{"data": "Set 3", "target": "RING finger protein unkempt homolog, zinc fingers 1-6, GST-SBP tag (UNK, Homo sapiens, UniProt Q9C0B0, residues 30-357)", "technique": "RNA Bind-n-Seq", "form": "RNA", "medium": "in vitro", "tested at": "not given", "setting": "RNA with constant flanks, human and mouse sites, ends assumed", "relative to": "input RNA pool", "direction": "higher = stronger binding", "all sequences stand within": "GGGAGUUCUACAGUCCGACGAUC … CAACAGAGGAUUGAGCAUCA", "UniProt Q9C0B0, sequence (30-357, looked up)": "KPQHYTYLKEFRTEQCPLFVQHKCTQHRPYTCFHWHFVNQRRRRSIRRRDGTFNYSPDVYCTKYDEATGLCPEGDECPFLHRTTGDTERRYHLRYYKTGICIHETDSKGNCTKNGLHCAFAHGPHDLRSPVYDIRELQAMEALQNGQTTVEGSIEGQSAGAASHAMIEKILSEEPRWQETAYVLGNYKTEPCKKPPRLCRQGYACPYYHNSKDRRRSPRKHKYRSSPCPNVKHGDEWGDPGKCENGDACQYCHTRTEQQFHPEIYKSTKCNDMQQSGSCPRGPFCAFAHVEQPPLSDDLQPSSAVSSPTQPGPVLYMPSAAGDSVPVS"}
{"Strand": "AACCGUCUCCAUGUAACUCUUGACAUACUUUUCUGAGAUUUGGCUUAUUUUUAUUAUUGGUUAUUUCUCACUGUUCAUUCUAUUUGAUUUAUUCUACAACAUCCCCUUUUAUUUAAUGAU", "bound/input enrichment [ratio]": 0.735}
{"Strand": "CUAGAGGAUUACUACCAAAGUGGAAGAAUGCUUUUGCGAAUGUCUCAAGCUCUGGGUCGAAUAGUUUUGGCUGGGCGUGAAAUGACUAGAUUGGCCGGUUUUACUGCUCGGAUUACAGAA", "bound/input enrichment [ratio]": 0.197}
{"Strand": "GAUCCUCCACGAUUACGUGAAUAAAAUGAUGGAACCAAAAAUCACUGUCACUUUACAACUUAGGUUUUACUCUUUUCUUUCUACAGACCAUAUUUUUAAAGAAAUGUUUAUACAAUAAUU", "bound/input enrichment [ratio]": 3.9}
{"Strand": "GUUAUAGGAGUUUACAAAAAAAUACCAACAUGUCAUCACCCACGCCAUUUAAGAUGAGAUUAGUUCAUUUGGACCUUAAAGGAGCGCCGCCAAAGGUUUCAUAUCUCUCUGAGGUUUUUC", "bound/input enrichment [ratio]": 2.88}
{"Strand": "GGAACGGAGCAAUUUACAGCAAUGAGGGAUUUAUACAUGAAAAAUGGACAAGGAUUUGCAUUAGUUUAUUCCAUCACAGCACAGUCCACAUUUAACGAUUUACAAGACCUGAGAGAACAG", "bound/input enrichment [ratio]": 0.805}
{"Strand": "AAGCAGUUUGAAAGCAGAUAAAAAGUUAGAAUUUGUUCCCACAAACCUGCACAUACAACGGAUGCGAGUUCAAGAUGAUGGAGGCUCAGAUCAGAACUACGAUGUCGUCACUAUUGGAGC", "bound/input enrichment [ratio]": 0.18}
{"Strand": "UAAACAAUCUUUUCUUUUUUUGUGGUUGUGUACUCAUUAUUGCUUGUUCGUCUUUUGCAAUUUAGAUAAAUGAUAUAACAUUAAACUCAAGGUGGUUGAGUUGCAGUAGGGAGUCGGAAG", "bound/input enrichment [ratio]": 7.04}
{"Strand": "AUAACUGAAGAUGUCUUGGAUUAUGCUGUGUCUAGCGUUUUAUUCCAGUCUGUAUGGUUACGCCUAAAGAGAGAAAAGUCUCAGCUAAUCUCAGGGAUGCAGAGAGAACGAGAAGAAGAA", "bound/input enrichment [ratio]": 0.226}
{"data": "Set 4", "target": "ABI1, truncated, D143A, DHFR fusion (Arabidopsis thaliana)", "technique": "DHFR PCA, deep sequencing", "medium": "yeast", "setting": "methotrexate growth selection, single substitutions", "with": "(+)-ABA 2500 µM", "relative to": "wild-type fitted maximum", "direction": "higher = stronger binding", "starting sequence": "PYL1, truncated, DHFR fusion (Arabidopsis thaliana); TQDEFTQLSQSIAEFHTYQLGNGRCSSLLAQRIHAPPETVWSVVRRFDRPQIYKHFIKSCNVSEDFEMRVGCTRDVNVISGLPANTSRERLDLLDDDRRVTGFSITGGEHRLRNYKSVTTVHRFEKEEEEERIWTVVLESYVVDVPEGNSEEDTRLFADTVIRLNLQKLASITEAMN"}
{"Substitution": "M176K", "relative binding score": "103%"}
{"Substitution": "R46W", "relative binding score": "80.8%"}
{"Substitution": "N177A", "relative binding score": "93%"}
{"Substitution": "R123I", "relative binding score": "93.8%"}
{"Substitution": "Q167H", "relative binding score": "96.5%"}
{"Substitution": "F56K", "relative binding score": "-6.17%"}
{"Substitution": "G23D", "relative binding score": "98.1%"}
{"Substitution": "Q7L", "relative binding score": "101%"}
{"Substitution": "K168S", "relative binding score": "97.7%"}
{"Substitution": "F56S", "relative binding score": "44.6%"}
{"Substitution": "L166M", "relative binding score": "95.6%"}
{"Substitution": "R46F", "relative binding score": "76%"}
{"Substitution": "V121H", "relative binding score": "12.9%"}
{"Substitution": "V121I", "relative binding score": "94%"}
{"Substitution": "G108Q", "relative binding score": "76.1%"}
{"Substitution": "M176E", "relative binding score": "98.7%"}
{"note": "Some of these lines once more (set 1):"}
{"Substitution": "C11G", "normalised enrichment score": 2.01}
{"Substitution": "A10D", "normalised enrichment score": 3.89}
{"Substitution": "R4P", "normalised enrichment score": 0.693}
{"Substitution": "F9V", "normalised enrichment score": 0.823}
{"Substitution": "R5K F9L", "normalised enrichment score": 0.614}
{"Substitution": "H3R", "normalised enrichment score": 1.07}
{"Substitution": "R4N", "normalised enrichment score": 1.28}
